Measured values gathered from unrelated publications.
Compare with care: the assays were run in different laboratories. Values joined by “and” are separate records of one study, mostly repeats; a detail may differ. Numbers after ± are the reported error.
Gria2/Glutamate receptor 3: Gria2/Glutamate receptor 3 (Rattus norvegicus, UniProt P19491+P19492)
USP14: Ubiquitin carboxyl-terminal hydrolase 14 (USP14, Homo sapiens, UniProt P54578)

SMILES	tested on	assay	system	conditions	scale	endpoint	result
COC1CN([C@H]2CC[C@H]([C@@]3(C)Oc4c(Cl)cc(C(=O)NCc5c(SC)cc(C)[nH]c5=O)c(C)c4O3)CC2)C1		RNA-seq, measured: MAK	human, whole blood	dose not given, 24 h	relative to: pretreatment baseline	log2 fold change	2.46
CCn1cc(-c2cccc(C(F)(F)F)c2)c2sc(C(=N)NC3CCS(=O)(=O)CC3)cc2c1=O	Histone acetyltransferase p300 (EP300, Homo sapiens, UniProt Q09472)					ΔTm	7.4 °C
CCCCCCCO[C@H]1[C@H](OC)O[C@H](CO)[C@@H](O)[C@H](O)[C@@H]1O	Type 1 fimbrin D-mannose specific adhesin, lectin domain (fimH, Escherichia coli K-12, UniProt P08191)	binding, isothermal titration calorimetry		25 °C, global fit of two titrations		-TΔS	-4.4 kJ/mol
COC(=O)Cc1cc2c(cc1C(=O)c1ccc(Cl)cc1Cl)OCO2	Gria2/Glutamate receptor 3	glutamate-evoked current, whole-cell patch clamp	HEK-293T	concentration not given, pH 7.4, holding potential -60 mV, with: 10 mM glutamate		current amplitude	185 ± 17 pA
Cc1ccc(O)c2c1NCCC2	USP14	enzyme activity, inhibitor		17 µM		inhibition	55%
C=CC(=O)N1CCc2ccc(-n3c(=O)ccc4cnc5ccc(-c6cnn(C)c6)cc5c43)cc21	Tyrosine-protein kinase ABL1, phosphorylated (ABL1, Homo sapiens, UniProt P00519, E255K)	KINOMEscan, measured: (E255K)-phosphorylated		1 µM	relative to: control	remaining binding	89%
CC(=O)C12NC(C)(C)CC1(C)C(=O)C1=C2c2c(c3c4n2C(C)(C)CC2=C4C4(CC(C)(C)NC(C)(C4)C2=O)CC3(C)C)C(=O)C(C)(C)N1 (single isomer, unassigned; (-))	Glutamate NMDA receptor; GRIN1/GRIN2B (GRIN1/GRIN2B, Homo sapiens, UniProt Q05586+Q13224)	ion current, agonist, whole-cell patch clamp	HEK293T	10 µM		activation	0.57 ± 0.01%
O=C(CCCCCCS)Nc1ccccc1	Histone deacetylase 8 (HDAC8, Homo sapiens, UniProt Q9BY41)	ITC	Tris-HCl buffer	303 K		TΔS°	2 kcal/mol
COC(=O)Cc1cc2c(cc1C(=O)c1cccc(Br)c1)OCO2	Gria2/Glutamate receptor 3	glutamate-evoked current, whole-cell patch clamp	HEK-293T	concentration not given, weighted tau, 1 ms pulse, with: glutamate		deactivation time constant	2.8 ± 0.2 ms
CC[C@H](C)[C@H](NC(=O)[C@@H](NC(=O)[C@@H](NC(=O)[C@@H](NC(=O)[C@H](CCCNC(=N)N)NC(=O)[C@H](CCC(=O)O)NC(=O)[C@H](CCC(=O)O)NC(=O)[C@H](C)NC(=O)[C@H](CCC(=O)O)NC(=O)CNC(=O)[C@H](C)NC(=O)CN)C(C)C)C(C)C)C(C)C)C(=O)N[C@@H](CO)C(=O)N[C@@H](CO)C(=O)N[C@@H](CO)C(=O)N[C@@H](CCC(=O)O)C(=O)N[C@@H](CC(=O)O)C(=O)N[C@@H](CO)C(=O)N[C@@H](CC(=O)O)C(=O)N[C@@H](C)C(=O)N[C@@H](CCC(=O)O)C(=O)N[C@@H](CC(N)=O)C(=O)N[C@@H](CO)C(=O)N[C@@H](CO)C(=O)N[C@@H](CO)C(=O)N[C@@H](CCCNC(=N)N)C(=O)N[C@@H](Cc1ccc(O)cc1)C(=O)O	Small ubiquitin-related modifier 1, residues 17-97 (Homo sapiens, UniProt P63165, C52A)	isothermal titration calorimetry		pH 7.4, N-terminally truncated SUMO1		-TΔS	-33.1 ± 0.879 kJ/mol
CC(C)Oc1cc(Cl)ccc1CNc1cc(-c2ccccc2)nc2ncnn12	G-protein coupled receptor 3 (GPR3, Homo sapiens, UniProt P46089, L128A)	cAMP level, cAMP GloSensor		100 pM	higher = more cAMP	cAMP luminescence	33100 a.u. and 19600 a.u. and 29900 a.u. and 18200 a.u.
O=C(O)C1CCCN(CC/C=C\C(c2ccccc2)(c2ccccc2)c2ccccc2)C1 (centres unmarked)	Sodium- and chloride-dependent glycine transporter 1 (SLC6A9, Homo sapiens, UniProt P48067)	cell-free assay		1 µM		remaining signal	101%
N[C@H]1C[C@@H](C(=O)O)CC1=C(Cl)Cl	ornithine aminotransferase (Toxoplasma gondii, UniProt S8EY38)	inactivator, SSDH-coupled NADPH		with: GABA substrate		kinact	0.00167 s⁻¹
NC(=O)C[C@@H]1NC(=O)[C@H](Cc2ccc(O)cc2)NC(=O)CNC(=O)CNC(=O)[C@H](CCC(=O)O)NC(=O)[C@H](CCC(=O)O)NC(=O)[C@H](Cc2ccccc2)NC(=O)[C@@H]2CCCN2C1=O	EH domain-containing protein 1, EH domain (Homo sapiens, UniProt Q9H4M9)	ITC		concentration not given, 15 mM NaCl		binding stoichiometry	1.03 ± 0.12
CCCCCC=CC=C1C(=O)C=CC1CC=CCCCC(=O)O (centres unmarked)	Outer kinetochore KNL1 complex subunit ZWINT (ZWINT, Homo sapiens, UniProt O95229)	competitive isoTOP-ABPP, measured: ZWINT cysteine peptide	proteome, soluble, MDA-MB-231	100 µM, with: iodoacetamide probe	relative to: DMSO over compound-treated, higher = stronger cysteine blockade	isoTOP-ABPP competition ratio	2.7
O=C1c2sc(-c3ccc(N4CCC(CO)CC4)nc3F)nc2CCN1c1cccnc1	TAR DNA-binding protein 43, aggregated (TARDBP, Homo sapiens, UniProt Q13148)	binding, surface plasmon resonance	brain-derived TDP-43 aggregates	300 nM		SPR response	4.57 RU
Cc1cc(N)c(O)cc1C	USP14	enzyme activity, inhibitor		17 µM		inhibition	61%
Cc1nn(-c2cccc(N)c2)c(=O)c2cnc(Nc3ccc(N4CCNCC4)cc3)nc12	Macrophage colony-stimulating factor 1 receptor (CSF1R, Homo sapiens, UniProt P07333)	enzyme activity, inhibitor				IC50	850 nM
Nc1ccn([C@@H]2O[C@H](COP(=O)(O)OP(=O)(O)OP(=O)(O)O)[C@@H](O)[C@H]2O)c(=O)n1	DNA polymerase subunit gamma-1 (POLG, Homo sapiens, UniProt P54098)	single-nucleotide incorporation, substrate				Vmax	0.44 product fraction
CC(C)(C)n1ncc2c(=O)n(Cc3cccc(F)c3)c(NCc3ccc(F)cn3)nc21	High affinity cGMP-specific 3',5'-cyclic phosphodiesterase 9A (PDE9A, Homo sapiens, UniProt O76083)	enzyme activity, inhibitor			relative to: IC50 PDE9A2 over PDE1C	selectivity ratio	> 2220 fold
CCCCCCCCCCCCC/C=C/C=O	Ketosamine-3-kinase (FN3KRP, Homo sapiens, UniProt Q9HA64)	competitive isoTOP-ABPP	Ramos soluble proteome	100 µM, with: iodoacetamide probe	relative to: DMSO over compound-treated, higher = stronger cysteine blockade	isoTOP-ABPP competition ratio	1
N=C(N)NCCC[C@H](NC(=O)[C@@H]1CCCN1C(=O)[C@H](CCCNC(=N)N)NC(=O)[C@@H]1CCCN1C(=O)[C@H](CCCNC(=N)N)NC(=O)[C@@H]1CCCN1C(=O)[C@H](CCCNC(=N)N)NC(=O)[C@@H]1CCCN1C(=O)[C@H](CCCNC(=N)N)NC(=O)[C@@H]1CCCN1C(=O)[C@H](CCCNC(=N)N)NC(=O)[C@@H]1CCCN1C(=O)[C@H](CCCNC(=N)N)NC(=O)[C@@H]1CCCN1C(=O)[C@H](CCCNC(=N)N)NC(=O)[C@@H]1CCCN1C(=O)[C@H](CCCNC(=N)N)NC(=O)[C@@H]1CCCN1C(=O)[C@H](CCCNC(=N)N)NC(=O)[C@@H]1CCCN1C(=O)[C@H](CCCNC(=N)N)NC(=O)[C@@H]1CCCN1C(=O)[C@H](CCCNC(=N)N)NC(=O)[C@@H]1CCCN1C(=O)[C@H](CCCNC(=N)N)NC(=O)[C@@H]1CCCN1C(=O)[C@H](CCCNC(=N)N)NC(=O)[C@@H]1CCCN1C(=O)[C@H](CCCNC(=N)N)NC(=O)[C@@H]1CCCN1C(=O)[C@H](CCCNC(=N)N)NC(=O)[C@@H]1CCCN1C(=O)[C@H](CCCNC(=N)N)NC(=O)[C@@H]1CCCN1C(=O)[C@H](CCCNC(=N)N)NC(=O)[C@@H]1CCCN1C(=O)[C@H](CCCNC(=N)N)NC(=O)[C@@H]1CCCN1C(=O)[C@H](CCCNC(=N)N)NC(=O)[C@@H]1CCCN1C(=O)[C@H](CCCNC(=N)N)NC(=O)[C@@H]1CCCN1C(=O)[C@H](CCCNC(=N)N)NC(=O)[C@@H]1CCCN1C(=O)[C@H](CCCNC(=N)N)NC(=O)[C@@H]1CCCN1C(=O)[C@H](Cc1ccc(O)cc1)NC(=O)[C@H](CO)NC(=O)CN)C(=O)O	Nucleophosmin (NPM1, Homo sapiens, UniProt P06748)	SANS P(r) analysis		0.7 molar excess over NPM1, 25 °C		radius of gyration	53.1 ± 2.31 Å
CCOC(=O)C1(C2(O)C(=O)c3ccccc3C2=O)CCCC1=O (centres unmarked)	USP14	enzyme activity, inhibitor		17 µM		inhibition	17%
O=C(Nc1cc(C(=O)Nc2ccc(S(=O)(=O)O)cc2S(=O)(=O)O)cc(C(=O)Nc2ccc(S(=O)(=O)O)cc2S(=O)(=O)O)c1)Nc1cc(C(=O)Nc2ccc(S(=O)(=O)O)cc2S(=O)(=O)O)cc(C(=O)Nc2ccc(S(=O)(=O)O)cc2S(=O)(=O)O)c1	P2X purinoceptor 1 (P2RX1, Homo sapiens, UniProt P51575)	antagonist, calcium influx		10 µM, with: submaximal α,β-methylene ATP	relative to: ionomycin response	calcium influx	0% and 2.55%
CCN(CC)CCn1c2ccccc2c2nc(C)sc21	USP14	enzyme activity, inhibitor		17 µM		inhibition	56%
C#CCOC(=O)[C@]1(C)C=C(C(=O)Nc2cccc(C(=O)Nc3ccc(C)c(Nc4nccc(-c5cccnc5)n4)c3)c2)C(=O)CC1	Mitogen-activated protein kinase 9 (MAPK9, Homo sapiens, UniProt P45984)	enzyme activity, inhibitor		2.788e-05 µM, unit not given	relative to: vehicle	remaining activity	0.97

Repeated from above:
SMILES	tested on	assay	system	conditions	scale	endpoint	result
CCCCCC=CC=C1C(=O)C=CC1CC=CCCCC(=O)O (centres unmarked)	Outer kinetochore KNL1 complex subunit ZWINT (ZWINT, Homo sapiens, UniProt O95229)	competitive isoTOP-ABPP, measured: ZWINT cysteine peptide	proteome, soluble, MDA-MB-231	100 µM, with: iodoacetamide probe	relative to: DMSO over compound-treated, higher = stronger cysteine blockade	isoTOP-ABPP competition ratio	2.7
O=C1c2sc(-c3ccc(N4CCC(CO)CC4)nc3F)nc2CCN1c1cccnc1	TAR DNA-binding protein 43, aggregated (TARDBP, Homo sapiens, UniProt Q13148)	binding, surface plasmon resonance	brain-derived TDP-43 aggregates	300 nM		SPR response	4.57 RU
